Published values pooled from the literature.
Compare with care: the assays were run in different laboratories. Numbers after ± are the reported error.

O=C(Nc1nccs1)C(c1cc(F)ccc1O)N1Cc2ccccc2C1=O (stereo not drawn)
Cmax (mouse FVB/NRj, female, plasma; oral, 20 mg/kg): 719 ± 512 ng/mL

N#CC1(c2ccc3c(N)ncnn23)OC(COP(=O)(O)O)C(O)C1O (stereo not drawn)
Cmax (LC-MS/MS; CD-1 mouse, lung; oral, 100 mg/kg of remdesivir): 937 nmol/kg

COC(=O)C1OC(Oc2c(-c3ccccc3)oc3cc(O)c(O)c(O)c3c2=O)C(O)C(O)C1O (stereo not drawn)
Cmax (BALB/c mouse, plasma; oral, 10 mg/kg): 11.7 ng/mL

O=C(Cc1ccc(-c2ccc(OCCN3CCOCC3)cc2)cn1)NCc1ccc(F)cc1
Cmax (ICR mouse; oral, 10 mg/kg): 2880 ± 1220 ng/mL

C=CC(=O)Nc1cccc(-c2cnc3[nH]cc(C(=O)NC(C)(C)C)c3n2)c1
Cmax (mouse NOD/SCID female, plasma; ip, 50 mg/kg): 10000 ng/mL

O=c1[nH]c2ccccc2n1CCCCCN1CCN(c2ccc(F)cc2)CC1
Cmax (C57BL/6 mouse, brain; subcutaneous, 5 mg/kg): 400 ± 800 ng/mL

COc1ccc2ccc3c(c2c1)C=[N+]1C2CCCCC2[N+]2=Cc4ccc(OCCN5CCCCC5)cc4[O][Au-]21[O]3.F[P-](F)(F)(F)(F)F (stereo not drawn)
Cmax (ICP-MS, refers to: gold; mouse, serum; intraperitoneal, 5 mg/kg): 1770 ng/mL

Cc1ccc(NC(=O)N2CCCN3CCC(c4ccc(C#CC5(O)CCCCC5)cc4)C3C2)cc1 (stereo not drawn)
Cmax (CD-1 mouse, plasma; oral, 10 mg/kg, single dose): 94.5 ng/mL

Cc1ccc(C(C)C)cc1.O=C(N=P(c1ccccc1)(c1ccccc1)c1ccccc1)c1ccccn1.[Cl-].[Cl-].[Ru+2]
Cmax (refers to: ruthenium; NOD scid mouse, plasma; intraperitoneal, 5 mg/kg): 2620 ng/mL

N=C(N)NCCC[C@@H]1NC(=O)[C@H](Cc2c[nH]c3ccccc23)NC(=O)[C@@H](CC2CCCCC2)NC(=O)[C@@H]2CCCN2C(=O)[C@@H](NC(=O)CCc2ccccc2)CCCNC1=O
Cmax (C57BL/6J mouse, plasma; intraperitoneal, 1 mg/kg, single dose): 5950 ng/mL

CCNC(=O)c1noc(-c2cc(C(C)C)c(O)cc2O)c1NC(=O)CCN1CCOCC1
Cmax (CD1 nude mouse, A-431 xenograft, lung; intraperitoneal, 80 mg/kg single): 4890 ng/mL

CC(C)N(P(c1ccccc1)c1ccccc1)P(c1ccccc1)c1ccccc1.Cc1ccc(C(C)C)cc1.F[B-](F)(F)F.[Cl][Ru+]
Cmax (ICP-MS, refers to: ruthenium; BALB/c nude mouse, serum; intraperitoneal, 5 mg/kg): 53.9 ng/mL

NC(=O)c1ccc(C(=O)NOCc2ccc(Sc3cccc(Cl)c3)c(C(F)(F)F)c2)cc1
Cmax (male ICR mouse, plasma; intraperitoneal, 30 mg/kg): 14300 ng/mL

Clc1ccc2ccc3[n+](c2c1)[Ir-3]12([c]4ccccc4-3)([c]3ccccc3-c3ccc4ccc(Cl)cc4[n+]31)[n+]1ccccc1-c1cccc[n+]12.F[P-](F)(F)(F)(F)F
Cmax (ICP-MS, refers to: iridium; mouse, serum; intraperitoneal, 2.0 mg/kg): 27 ng/mL

CCCCCCCCN(CCC(=O)Nc1ccccc1)C(=O)c1ccccn1
Cmax (C57BL/6 mouse, Lmna +/+, both sexes, serum; intraperitoneal, 40 mg/kg): ~40 µM

COc1ccc(NC(=O)N2CCCN3CCC(c4ccc(C#Cc5ccccc5)cc4)C3C2)cc1 (stereo not drawn)
Cmax (CD-1 mouse, brain; oral, 10 mg/kg, single dose): 3040 ng/g

Clc1ccc(C(c2c[nH]c3ccccc23)c2c[nH]c3ccccc23)cc1
Cmax (C57BL/6 mouse, male, midbrain; oral, 25 mg/kg): 3620 ± 1430 ng/g

O=S(=O)(N[C@@H]1CCC[C@H](N2c3ccccc3Oc3ccccc32)[C@H]1O)c1ccc(OC(F)(F)F)cc1
Cmax (mouse, plasma; oral, 100 mg/kg): ~14 µM

C=CC(=O)Nc1cc(Nc2nccc(-n3ccc4nc(OC)ccc43)n2)c(OC)cc1N(C)CCN(C)C
Cmax (BALB/c nude mouse, H1975 xenograft, tumour; oral, 60 mg/kg): 4120 ng/g

COc1ccc(NC(=O)N2CCCCN3[C@H](CN(C)C)[C@H](c4ccc(C#Cc5ccccc5)cc4)[C@@H]3C2)cc1
Cmax (CD-1 mouse, plasma; oral, 10 mg/kg, single dose): 406 ng/mL

CCCCCCCCCCCCCCCC(=O)NCCOCCOCCOCCOCCOCCOCCOCCOCCC(=O)NCCCC[C@H](NC(=O)CNC(=O)[C@@H]1CSSC[C@H](N)C(=O)N[C@@H](Cc2ccc(O)cc2)C(=O)N[C@@H]([C@@H](C)CC)C(=O)N[C@@H](CCC(N)=O)C(=O)N[C@@H](CC(N)=O)C(=O)N1)C(=O)NCC(N)=O
Cmax (male C57BL/6J mouse, plasma; subcutaneous, 20 mg/kg, depot formulation): 0.552 µM

A few entries again:
CCNC(=O)c1noc(-c2cc(C(C)C)c(O)cc2O)c1NC(=O)CCN1CCOCC1
Cmax (CD1 nude mouse, A-431 xenograft, lung; intraperitoneal, 80 mg/kg single): 4890 ng/mL

CC(C)N(P(c1ccccc1)c1ccccc1)P(c1ccccc1)c1ccccc1.Cc1ccc(C(C)C)cc1.F[B-](F)(F)F.[Cl][Ru+]
Cmax (ICP-MS, refers to: ruthenium; BALB/c nude mouse, serum; intraperitoneal, 5 mg/kg): 53.9 ng/mL
